Results from different studies.
Every numbered part comes from another study and shows a few of its results, in no order. Changes are numbered by the printed parent chain.

Block 1 — target: CCNB3, cyclin fold, Cln2 fusion (human); method: yeast growth competition, sequencing; sample: yeast; setting: weak parent motif; relative to: not given; reading: higher = stronger binding; quantity: normalised enrichment score
Starting sequence: ORC1 docking peptide (human); PRARKRLELGNLG
G13F: -0.104
R4L: 0.23
R2A: 0.186
P1W: 0.551
N11P: 0.249
L9A: 0.338
L12G: -0.0883
N11K: 0.0243
G10I: 0.225
K5V: 0.00166
R4M: 0.13
A3H: 0.248
R6P: 0.0601
L12Q: 0.218
K5G: 0.241
L9W: 0.0595
G10C: 0.118
R4N: 0.137
P1V: -0.0498
L9N: -0.101
L12M: 0.554
E8N: 0.137
R6W: 0.191
A3L: -0.211
G10T: -0.118

Block 2 — method: DHFR PCA, deep sequencing; sample: yeast; together with: (+)-ABA 0 µM; relative to: wild-type fitted maximum; reading: higher = stronger binding; quantity: relative binding score
Target: ABI1, truncated, D143A, DHFR fusion (Arabidopsis thaliana)
Setting: methotrexate growth selection, single substitutions
Starting sequence: PYL1, truncated, DHFR fusion (Arabidopsis thaliana); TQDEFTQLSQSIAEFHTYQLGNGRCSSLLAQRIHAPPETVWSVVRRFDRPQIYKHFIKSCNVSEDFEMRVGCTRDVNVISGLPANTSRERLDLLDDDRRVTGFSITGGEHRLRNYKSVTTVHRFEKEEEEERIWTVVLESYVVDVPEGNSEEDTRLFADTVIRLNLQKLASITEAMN
S150V: 6.09%
I57N: -1.3%
L82P: 5.4%
L112T: 1.29%
A84I: 35.3%
T120Y: -6%
F5T: 6.41%
Q51A: 24.4%
V142D: 1.13%
A13W: 0.37%
H110K: 25.4%
W134L: 13.4%
K54M: -0.298%
T135S: 8.44%
E152D: 16.6%

Block 3 — method: RNA Bind-n-Seq; form: RNA; sample: in vitro; concentration: 200 nM; setting: whole 134-nt RNA, ends assumed; together with: 150 mM LiCl; relative to: input library; reading: higher = stronger binding; quantity: log2 enrichment; library: 7-deaza-guanosine replaces G
Target: Fragile X messenger ribonucleoprotein 1, C-terminal low-complexity region (Fmr1, Mus musculus, UniProt P35922)
All sequences stand within: GGGAGUUCUACAGUCCGACGAUC … UGGAAUUCUCGGGUGUCAAGG
UCAAGUCCUGUGCUACACAUCGUAUGUACCGAAUCGGGGUUGGGUUGGGUUGGGGAAAGUAUUAUGUUACGCCGUUCGGAUCUGCACUUC: 0.161
ACCAUGCAGGUGGGCAUCUUUGGGAAGUCGGGCAAGGGGGGGAUAGGGAGGGGGGUAACACUUUGGGAACAGGUGGUCCCAGGUCGUUUC: 1.86
UCAAGUCCUGUGCUACACAUCGUAUGUACCGAAUCGUGUGUGUGUGUGUGUGUGUAAAGUAUUAUGUUACGCCGUUCGGAUCUGCACUUC: -0.816
CUGUGCUACACAUCGUAUGUACCGAAUCGGGCCCCCCCGGGCCCCCCCGGCCCCCCCGGGGAAAGUAUUAUGUUACGCCGUUCGGAUCUG: -0.283
AGUCCUGUGCUACACAUCGUAUGUACCGAAUCGGAAAAAGGGAAAAAGGAAAAAGGGAAAGUAUUAUGUUACGCCGUUCGGAUCUGCACU: -1.47
CAAGUCCUGUGCUACACAUCGUAUGUACCGAAUCGGGGUUGGGGUUGGGGUUGGGGAAAGUAUUAUGUUACGCCGUUCGGAUCUGCACUU: -0.855
ACCAUGCAGGUGGGCAUCUUUGGCAAGUGGGGCAAGGGGGGGAUAGGGAGGGGGGUAACACUUUGGGAACAGGUGGUCCCAGGUCGUUUC: 1.41
CUGUGCUACACAUCGUAUGUACCGAAUCGGGAAAAAAAGGGGAAAAAAAGGAAAAAAAGGGGAAAGUAUUAUGUUACGCCGUUCGGAUCU: 0.316
CUGUGCUACACAUCGUAUGUACCGAAUCGGGGAAAAAAAGGAAAAAAAGGAAAAAAAGGGGAAAGUAUUAUGUUACGCCGUUCGGAUCUG: 0.13
UGCAGCUGCUGGCCGCCUCCUAUGACCUGCACCGCUACUUCUACACGGGUGCCGAGAUCCUGGGCCUCAUCGACGAGAAGCACCGCGAGC: 1.08
GAAAUACCAUCGGAAGACGAUGGGACGGUGCUGCUCUCCACGGUUACAGCCCAGUUUCCAGGGGCGUGUGGGCUUCGCUACAGGAAUCCA: -0.359

Block 4 — method: aptamer microarray, sandwich; form: DNA with 2'F-ANA; sample: in vitro; concentration: 200 nM; together with: Cy3 exosite-II aptamer, 400 nM; reading: higher = stronger binding; quantity: mean fluorescence intensity; strand: GGTTGGTGTGGTTGG
Target: Prothrombin, mature alpha-thrombin (F2, Homo sapiens, UniProt P00734)
Setting: whole 15-mer aptamer, many near background
2'F-ANA at 1 4 5 6 7 8 9 10 14 15: 199 a.u.
2'F-ANA at 3 5 7 11 12 14 15: 60.7 a.u.
2'F-ANA at 1 3 4 7 8 10 11 15: 59.7 a.u.
2'F-ANA at 3 5 8 12 13 14: 62.4 a.u.
2'F-ANA at 2 4 6 7 10 11 13: 67.5 a.u.
2'F-ANA at 1 3 5 11 13 14 15: 43.3 a.u.
2'F-ANA at 3 6 9 10 11: 412 a.u.
2'F-ANA at 1 7 9 11: 183 a.u.
2'F-ANA at 3 4 5 7 8 9 10 11 12 15: 71.9 a.u.
2'F-ANA at 2 3 4 6 8 9 10 11 12 13: 209 a.u.
2'F-ANA at 1 5 7 8 11 12 13 15: 75 a.u.
2'F-ANA at 3 4 6 7 9 10 11 13 14 15: 147 a.u.
2'F-ANA at 3 4 5 6 8 10 12 14: 53.8 a.u.
2'F-ANA at 1 2 4 5 7 9 11 13: 52.5 a.u.
2'F-ANA at 1 2 4 5 6 9 10 11 14: 48.2 a.u.
2'F-ANA at 2 3 5 7 8 9 14: 58.3 a.u.
2'F-ANA at 2 3 4 6 9 13 15: 338 a.u.
2'F-ANA at 4 11 12 13 14: 113 a.u.
2'F-ANA at 5 6 7 9 12 13 15: 92.9 a.u.
2'F-ANA at 2 3 5 6 7 8 12 13: 169 a.u.
2'F-ANA at 2 6 7 8 11 13 14 15: 130 a.u.
2'F-ANA at 1 2 3 4 8 10 11 13: 74.9 a.u.
2'F-ANA at 1 8 9 11: 183 a.u.
2'F-ANA at 4 6 7 8 11 14 15: 101 a.u.
2'F-ANA at 1 2 3 7 8 10 11 12 13 14 15: 62.3 a.u.

Block 5 — method: protein binding microarray; form: double-stranded DNA, one strand shown; sample: in vitro; concentration: not given; relative to: not given; reading: higher = stronger binding; quantity: E-score
Target: Histone acetyltransferase KAT6A, winged helix 2, GST fusion (KAT6A, Homo sapiens, UniProt Q92794, residues 85-181)
Setting: 8-mer, flanks averaged, mean of 2 arrays, mostly near background
Target sequence (chain): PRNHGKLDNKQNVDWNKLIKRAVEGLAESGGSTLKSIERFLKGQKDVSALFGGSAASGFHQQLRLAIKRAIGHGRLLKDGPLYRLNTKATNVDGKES
CAGCAGCA: 0.0724
CGCACGAA: 0.156
GGTCAGAA: 0.0306
CACTCATC: -0.061
AATGGCAT: 0.14
AGTGAACT: -0.0143
AGGTCTAT: -0.171
ACGTACGT: -0.334
CGCTTAGA: -0.142
GAGCGCGA: 0.0829
CAGTGCCC: 0.0354
ACAATTGG: -0.0566
ACCCACTA: 0.0342
CATGCCCC: -0.109
AATCTAAA: 0.106
AGTGAGAT: 0.0245
CGTCATGC: 0.0606
ACCCTGTC: 0.000385
ACGGCTCG: 0.0536
AAGCCCAG: 0.0246

Block 6 — method: universal PBM; form: double-stranded DNA, one strand shown; sample: in vitro; concentration: 600 nM; reading: higher = stronger binding; quantity: E-score
Target: Sal-like protein 4, full length isoform A (SALL4, Homo sapiens, UniProt Q9UJQ4, residues 1-1053)
Sequence of UniProt Q9UJQ4 (whole entry, looked up): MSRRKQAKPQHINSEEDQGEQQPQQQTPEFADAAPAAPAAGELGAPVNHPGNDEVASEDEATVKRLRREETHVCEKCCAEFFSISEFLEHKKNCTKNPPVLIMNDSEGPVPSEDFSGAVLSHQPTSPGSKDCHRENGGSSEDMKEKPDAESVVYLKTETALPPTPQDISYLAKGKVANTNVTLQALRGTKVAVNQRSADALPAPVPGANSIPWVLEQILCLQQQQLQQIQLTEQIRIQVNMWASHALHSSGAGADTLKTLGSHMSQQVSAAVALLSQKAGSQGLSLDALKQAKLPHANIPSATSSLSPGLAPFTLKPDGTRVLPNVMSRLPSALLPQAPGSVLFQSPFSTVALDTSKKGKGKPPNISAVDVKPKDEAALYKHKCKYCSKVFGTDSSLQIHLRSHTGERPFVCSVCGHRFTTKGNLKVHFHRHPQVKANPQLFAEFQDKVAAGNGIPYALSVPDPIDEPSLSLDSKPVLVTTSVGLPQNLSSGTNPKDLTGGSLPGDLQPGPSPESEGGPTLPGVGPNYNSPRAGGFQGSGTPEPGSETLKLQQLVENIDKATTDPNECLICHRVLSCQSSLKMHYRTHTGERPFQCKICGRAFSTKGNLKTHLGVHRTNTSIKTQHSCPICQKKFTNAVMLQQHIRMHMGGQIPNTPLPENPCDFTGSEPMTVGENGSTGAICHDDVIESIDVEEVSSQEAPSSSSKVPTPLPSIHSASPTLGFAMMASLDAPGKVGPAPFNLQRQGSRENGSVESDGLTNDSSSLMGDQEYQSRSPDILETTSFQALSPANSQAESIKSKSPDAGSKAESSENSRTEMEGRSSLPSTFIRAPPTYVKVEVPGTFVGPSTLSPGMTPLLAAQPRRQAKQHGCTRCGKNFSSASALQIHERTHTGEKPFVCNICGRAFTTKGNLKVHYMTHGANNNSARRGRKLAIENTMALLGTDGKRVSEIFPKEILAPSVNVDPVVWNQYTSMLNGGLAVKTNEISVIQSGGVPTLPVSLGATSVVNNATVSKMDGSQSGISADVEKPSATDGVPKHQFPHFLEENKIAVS
Setting: 8-mer, flanks averaged, mean of replicates
GGCGATGA: -0.177
ATGCCGGC: -0.171
TGATACCA: 0.0785
GACTAGCA: -0.136
AGAAGATC: -0.0947
GCGTTAAA: -0.05
AAAAGGCA: 0.085
TAAACCCA: 0.18
AAATGGAG: 0.0177
GTTAGAGA: 0.0153
ACGAACCT: -0.035
ATTCAACA: 0.15
GTACCAAC: -0.113
GCGTGAAC: -0.144
ACCATTGA: 0.103
GTAGGGAC: -0.0807

Block 7 — method: protein-binding microarray; form: double-stranded DNA, one strand shown; sample: in vitro; concentration: not given; reading: higher = stronger binding; quantity: E-score
Target: Protein C-ets-1 (ETS1, Homo sapiens, UniProt P14921, residues 1-441, Y397A, full length assumed)
Setting: k-mer, scored over probes, only values ≥0.25
Residues (chain): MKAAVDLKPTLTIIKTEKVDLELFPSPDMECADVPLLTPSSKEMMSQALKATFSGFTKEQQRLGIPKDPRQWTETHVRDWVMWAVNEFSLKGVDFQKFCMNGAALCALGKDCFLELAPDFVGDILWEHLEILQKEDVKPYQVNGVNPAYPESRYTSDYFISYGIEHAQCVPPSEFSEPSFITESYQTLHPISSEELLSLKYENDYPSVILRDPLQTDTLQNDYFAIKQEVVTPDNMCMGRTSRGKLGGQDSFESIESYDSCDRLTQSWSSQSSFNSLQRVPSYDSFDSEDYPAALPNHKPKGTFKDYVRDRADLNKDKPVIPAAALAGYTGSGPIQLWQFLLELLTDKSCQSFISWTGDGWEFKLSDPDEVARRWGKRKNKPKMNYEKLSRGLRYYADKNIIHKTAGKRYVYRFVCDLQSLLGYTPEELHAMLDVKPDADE
ACTTCCGA: 0.468
GTGTCGTA: 0.269
CAATTATG: 0.28
AGCAAAAC: 0.267
ACCCGCCG: 0.305
CATAGCAA: 0.281
ATTGCCGC: 0.264
CCGACAAC: 0.304
ATGGCACA: 0.269
CTTCCGCA: 0.319
GCCAAAAC: 0.27
CAATTCCG: 0.283
ACAACAAC: 0.331

Further values, each from its own experiment
PhoQ, residues 284 288 289 292 302 303 DDMDFR
fold induction (PhoP, residues 12 14 15 18 19 VHSCL (Escherichia coli, UniProt P23836); Sort-seq, refers to: YFP reporter; E. coli; PhoQ-PhoP variant library, together with: 10 µM Mg2+; relative to: high Mg2+ state, higher = stronger signaling): 1.57

Some of these lines once more (block 4):
2'F-ANA at 1 7 9 11: 183 a.u.
2'F-ANA at 1 2 3 4 8 10 11 13: 74.9 a.u.
2'F-ANA at 3 4 5 7 8 9 10 11 12 15: 71.9 a.u.
2'F-ANA at 1 2 3 7 8 10 11 12 13 14 15: 62.3 a.u.
2'F-ANA at 4 6 7 8 11 14 15: 101 a.u.
2'F-ANA at 3 4 5 6 8 10 12 14: 53.8 a.u.
2'F-ANA at 2 3 5 7 8 9 14: 58.3 a.u.
2'F-ANA at 3 6 9 10 11: 412 a.u.
2'F-ANA at 1 8 9 11: 183 a.u.
2'F-ANA at 3 5 7 11 12 14 15: 60.7 a.u.
2'F-ANA at 1 5 7 8 11 12 13 15: 75 a.u.
